Measurements pooled from the literature.
Protocols differ between the studies behind these lines.

With `CCn1cc(C(=O)N2CCOCC2)c(=O)c2cc(NC3Cc4ccccc4C3)cnc21` the Tmax was 3.5 h (human male, fed, plasma; oral, 900 mg twice daily, day 7, tablet, median).
`CN[C@H](CC(C)C)C(=O)N[C@H]1C(=O)N[C@@H](CC(N)=O)C(=O)N[C@H]2C(=O)N[C@H]3C(=O)N[C@H](C(=O)N[C@H](C(=O)O)c4cc(O)cc(O)c4-c4cc3ccc4O)[C@H](O)c3ccc(c(Cl)c3)Oc3cc2cc(c3O[C@@H]2O[C@H](CO)[C@@H](O)[C@H](O)[C@H]2O[C@H]2C[C@](C)(N)[C@H](O)[C@H](C)O2)Oc2ccc(cc2Cl)[C@H]1O` gave a Tmax of 8 h (C57BL/6N mouse H3, faeces; po, 0.5 mL, 20 mg/mL solution).
With `CN1CCC[C@H](CN2c3ccccc3Sc3ccccc32)C1.Cl` the Tmax was 1 h (fasted female ICR mouse, kidney; oral, 16 mg/kg).
`O=C(O)CCC(=O)O.[2H]C([2H])([2H])Oc1cc(C)c2[nH]ccc2c1CN1CC[C@@H](C2CC2)C[C@H]1c1ccc(C(=O)O)cc1` has a Tmax of 3.5 h (human, plasma; 200 mg once daily, day 1, multiple ascending dose, median).
For `Cl.[2H]C([2H])([2H])CC(=O)c1cnc(NC(=O)C2CC2)cc1Nc1cccc(-c2ncn(C([2H])([2H])[2H])n2)c1OC`, the Tmax was 2.12 h (median; human; oral, 40 mg twice daily, day 7, fed, liquid, multiple dose).
`C=CCn1c(=O)c2cnc(Nc3ccc(N4CCN(C)CC4)cc3)nc2n1-c1cccc(C(C)(C)O)n1` gave a Tmax of 3 h (human; oral, 300 mg once daily, cycle 1 day 17, added: durvalumab 1500 mg IV; median).
For `CCOC(=O)C1=C[C@]2(CC)CCCN3CCc4c(n1c1ccccc41)[C@@H]32`, the inhibition was -4.2% (Nedd8-cullin1 interaction; neddylation, AlphaScreen; 100 µM).
`CCCCC1=NC2(CCCC2)C(=O)N1Cc1ccc(-c2ccccc2S(=O)(=O)Nc2noc(C)c2C)c(COCC)c1` has a Tmax of 3.5 h (healthy adult volunteers, plasma; oral, 1600 mg, 14 days repeated dosing, fasted, crushed tablet).
`CCOC(=O)C(C)(C)Oc1ccc(Cl)cc1` has an inhibition of -402% (Nedd8-cullin1 interaction; neddylation, AlphaScreen; 100 µM).
With `CN1C(=O)[C@@H](NC(=O)c2nnc(Cc3ccccc3)[nH]2)COc2cccnc21` the Tmax was 3.52 h (healthy human, fasted, plasma; oral, 200 mg single dose, median).
With `CCOc1c([C@H](C)n2nc(C)c3c(N)ncnc32)cc(Cl)c(F)c1[C@@H]1CNC(=O)C1` the Tmax was 0.5 h (patients with DLBCL, plasma; oral, 30 mg, day 15, monotherapy).
`NC1(C(=O)N[C@@H](CCO)c2ccc(Cl)cc2)CCN(c2nc[nH]c3nccc2-3)CC1` has a Tmax of 2 h (LC-MS/MS, non-compartmental; human patients, plasma; 160/320 mg cohort, cycle 2, median, added: enzalutamide).

Repeated from above:
With `CN1C(=O)[C@@H](NC(=O)c2nnc(Cc3ccccc3)[nH]2)COc2cccnc21` the Tmax was 3.52 h (healthy human, fasted, plasma; oral, 200 mg single dose, median).
